Experimental data collected from several papers.
Every numbered part comes from another study and shows a few of its results, in no order. Several values in a cell are separate wells, animals, samples, runs or records.

Study 1
Target: Replicase polyprotein 1ab, nsp12 with nsp7/nsp8 (rep, Severe acute respiratory syndrome coronavirus 2, UniProt P0DTD1)
Mode: inhibitor
Concentration: 20 µM
COc1ccc([C@]2(O)CC[C@@H](N3CC[C@@H](NC(=O)CNC(=O)c4cccc(C(F)(F)F)c4)C3)CC2)cn1 has an inhibition of 2.27%.
Cc1c2oc3c(C)ccc(C(=O)N[C@@H]4C(=O)N[C@H](C(C)C)C(=O)N5CCC[C@H]5C(=O)N(C)CC(=O)N(C)[C@@H](C(C)C)C(=O)O[C@@H]4C)c3nc-2c(C(=O)N[C@@H]2C(=O)N[C@H](C(C)C)C(=O)N3CCC[C@H]3C(=O)N(C)CC(=O)N(C)[C@@H](C(C)C)C(=O)O[C@@H]2C)c(N)c1=O gave an inhibition of 16.8%.
With CCS(=O)(=O)N(C)[C@H]1c2cc(C#N)ccc2OC(C)(C)[C@@H]1O the inhibition was -4.27%.
O=C(O)/C=C\c1c[nH]cn1 gave an inhibition of -2.92% and -11.1%.
CO[C@@H]1[C@H](OC(=O)NC(=O)CCl)CC[C@]2(CO2)[C@H]1[C@@]1(C)O[C@@H]1CC=C(C)C has an inhibition of -0.45% and -0.47%.
The inhibition of CCOc1ccc(-n2c([C@@H](C)N(Cc3cccnc3)C(=O)Cc3ccc(OC(F)(F)F)cc3)nc3ncccc3c2=O)cc1 (racemic) is reported as 1.03%.
C[C@H]1Oc2cc(cnc2N)-c2c(nn(C)c2C#N)CN(C)C(=O)c2ccc(F)cc21 has an inhibition of 4.82% and -2.65%.
CCn1c(=O)c(-c2cc[nH]n2)cc2c(C)nc(N)nc21 gave an inhibition of -1.88% and -4.06%.
The inhibition of O=C1c2c(O)cccc2Cc2cccc(O)c21 is reported as 58%.
Cn1nccc1Nc1nccc(-c2ccn([C@H](CO)c3ccc(Cl)c(F)c3)c(=O)c2)n1 gave an inhibition of -5.7% and 12.2%.
The inhibition of NC(=O)c1ccc[n+]([C@@H]2O[C@H](COP(=O)([O-])OP(=O)(O)OC[C@H]3O[C@@H](n4cnc5c(N)ncnc54)[C@H](O)[C@@H]3O)[C@@H](O)[C@H]2O)c1 is reported as 0.53% and 11.2%.

Study 2
Organism: Vesicular stomatitis virus
Read-out: pseudovirus infection
Method: FDA-approved drug library screen
Concentration: concentration not given
Setting: SARS-CoV-2 spike pseudotype
Reference: vehicle
With CN1CCN(C2=Nc3ccccc3Oc3ccc(Cl)cc32)CC1.O=C(O)CCC(=O)O the GFP-positive cells was 59.2%.
The GFP-positive cells of CC(C)OC(=O)[C@H](C)N[P@](=O)(OC[C@H]1O[C@@H](n2ccc(=O)[nH]c2=O)[C@](C)(F)[C@@H]1O)Oc1ccccc1 is reported as 95.1%.
Cl.NC(N)=NCCC[C@H](N)C(=O)O gave a GFP-positive cells of 81.7%.

Study 3
Target: Phosphate system positive regulatory protein PHO4, full length, GST-tagged (PHO4, Saccharomyces cerevisiae, UniProt P07270, residues 1-312)
Method: competition protein-binding microarray
Molecule type: double-stranded DNA, one strand shown
Sample: in vitro
Concentration: 2 µM
Setting: whole 60-bp probe, lowest competitor level
Together with: Cbf1 competitor, 0.05 µM
Reading: higher = stronger binding
Target sequence (chain): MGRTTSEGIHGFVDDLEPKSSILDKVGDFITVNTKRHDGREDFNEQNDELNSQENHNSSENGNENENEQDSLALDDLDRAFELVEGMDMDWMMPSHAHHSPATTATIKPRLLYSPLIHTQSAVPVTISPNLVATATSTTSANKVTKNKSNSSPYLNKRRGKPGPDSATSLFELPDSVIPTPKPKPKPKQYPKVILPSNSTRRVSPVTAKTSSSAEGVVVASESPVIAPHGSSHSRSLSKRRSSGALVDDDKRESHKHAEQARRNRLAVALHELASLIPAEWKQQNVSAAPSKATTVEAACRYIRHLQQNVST
`CCAACACCGTCTTCACCCGTGCAAATGCCTTCTGCGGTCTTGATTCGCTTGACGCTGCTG` has a fluorescence intensity of 6770 a.u.
For `CGGCCGGCCGAAAGCCATGCGGCCCAACAAGCGGCGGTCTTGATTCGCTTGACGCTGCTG`, the fluorescence intensity was 4660 a.u.
`GGGCTCACTTTTAGACGCGTGTTCCATCGGCGTTCGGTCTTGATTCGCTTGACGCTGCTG` has a fluorescence intensity of 8490 a.u.
`AAAGCGGTAATTTGAGATGTGGGTGCAGATATCTATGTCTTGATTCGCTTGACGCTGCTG` has a fluorescence intensity of 4530 a.u.
`AAGCTCAATTCGAGTCACGTGGGTAGAAATATTACAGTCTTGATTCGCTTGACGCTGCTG` has a fluorescence intensity of 16500 a.u.
With `CAGGCATAGCCCCGTCACGTTCTACGATAAGAACTTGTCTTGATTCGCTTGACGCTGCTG` the fluorescence intensity was 10700 a.u.
For `ATGTGTAAATCCGATACCAATAAAGTCAATGATAGGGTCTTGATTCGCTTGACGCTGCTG`, the fluorescence intensity was 4700 a.u.
With `TCTTACCTCCGTTAGCACGTCGTTGGTTAGGCTACTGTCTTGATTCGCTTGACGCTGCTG` the fluorescence intensity was 6310 a.u.

Study 4
Target: Replicase polyprotein 1ab, main protease (rep, Severe acute respiratory syndrome coronavirus 2, UniProt P0DTD1)
Read-out: enzyme activity
Mode: inhibitor
Concentration: 20 µM
Setting: hit confirmation, with DTT
The inhibition of O=c1cc(-c2ccc(O)cc2)oc2cc(O)cc(O)c12 is reported as -9.2%.
With [NH-]c1c[n+](N2CCOCC2)no1 the inhibition was -14.9%.
O=C(O)C(O)Cc1ccc(O)c(O)c1 (centres unmarked) gave an inhibition of -9.1%.
With NC(Cc1cc(O)c(O)cc1O)C(=O)O (racemic) the inhibition was 70%.

Some of these lines once more (study 1):
O=C(O)/C=C\c1c[nH]cn1 gave an inhibition of -2.92% and -11.1%.
